Published values of several laboratories.
Each line is one published result; not all experiments were run side by side. ≈ marks a conversion by molar mass, not a printed value.
Chain of UniProt P33261 (whole entry, looked up): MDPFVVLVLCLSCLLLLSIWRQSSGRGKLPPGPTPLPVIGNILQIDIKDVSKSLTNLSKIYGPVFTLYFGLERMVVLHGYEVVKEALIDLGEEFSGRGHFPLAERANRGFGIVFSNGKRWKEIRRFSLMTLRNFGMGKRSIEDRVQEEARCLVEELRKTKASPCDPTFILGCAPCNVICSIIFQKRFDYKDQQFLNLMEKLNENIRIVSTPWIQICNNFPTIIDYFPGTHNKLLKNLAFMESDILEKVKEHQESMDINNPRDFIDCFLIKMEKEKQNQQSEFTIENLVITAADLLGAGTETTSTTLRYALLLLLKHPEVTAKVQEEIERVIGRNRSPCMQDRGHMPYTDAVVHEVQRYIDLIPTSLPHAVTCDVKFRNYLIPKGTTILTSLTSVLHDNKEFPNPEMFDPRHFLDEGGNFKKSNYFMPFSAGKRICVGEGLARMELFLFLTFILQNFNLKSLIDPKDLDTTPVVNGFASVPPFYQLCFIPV
Chain of UniProt P11712 (whole entry, looked up): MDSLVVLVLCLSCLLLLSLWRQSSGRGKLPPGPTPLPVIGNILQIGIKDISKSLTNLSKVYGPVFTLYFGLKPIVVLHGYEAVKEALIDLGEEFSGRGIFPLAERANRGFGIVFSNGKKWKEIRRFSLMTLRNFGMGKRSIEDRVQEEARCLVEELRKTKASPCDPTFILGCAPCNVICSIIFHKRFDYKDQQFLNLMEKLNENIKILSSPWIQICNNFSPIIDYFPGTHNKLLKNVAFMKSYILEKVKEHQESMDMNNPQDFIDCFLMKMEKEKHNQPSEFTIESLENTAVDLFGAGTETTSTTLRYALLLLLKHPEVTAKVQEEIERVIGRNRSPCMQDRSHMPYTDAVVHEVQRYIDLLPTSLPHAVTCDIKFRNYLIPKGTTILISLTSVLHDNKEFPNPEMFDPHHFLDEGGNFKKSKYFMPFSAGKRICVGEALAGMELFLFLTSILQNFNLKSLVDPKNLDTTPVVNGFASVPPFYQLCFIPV
Chain of UniProt P08183 (whole entry, looked up): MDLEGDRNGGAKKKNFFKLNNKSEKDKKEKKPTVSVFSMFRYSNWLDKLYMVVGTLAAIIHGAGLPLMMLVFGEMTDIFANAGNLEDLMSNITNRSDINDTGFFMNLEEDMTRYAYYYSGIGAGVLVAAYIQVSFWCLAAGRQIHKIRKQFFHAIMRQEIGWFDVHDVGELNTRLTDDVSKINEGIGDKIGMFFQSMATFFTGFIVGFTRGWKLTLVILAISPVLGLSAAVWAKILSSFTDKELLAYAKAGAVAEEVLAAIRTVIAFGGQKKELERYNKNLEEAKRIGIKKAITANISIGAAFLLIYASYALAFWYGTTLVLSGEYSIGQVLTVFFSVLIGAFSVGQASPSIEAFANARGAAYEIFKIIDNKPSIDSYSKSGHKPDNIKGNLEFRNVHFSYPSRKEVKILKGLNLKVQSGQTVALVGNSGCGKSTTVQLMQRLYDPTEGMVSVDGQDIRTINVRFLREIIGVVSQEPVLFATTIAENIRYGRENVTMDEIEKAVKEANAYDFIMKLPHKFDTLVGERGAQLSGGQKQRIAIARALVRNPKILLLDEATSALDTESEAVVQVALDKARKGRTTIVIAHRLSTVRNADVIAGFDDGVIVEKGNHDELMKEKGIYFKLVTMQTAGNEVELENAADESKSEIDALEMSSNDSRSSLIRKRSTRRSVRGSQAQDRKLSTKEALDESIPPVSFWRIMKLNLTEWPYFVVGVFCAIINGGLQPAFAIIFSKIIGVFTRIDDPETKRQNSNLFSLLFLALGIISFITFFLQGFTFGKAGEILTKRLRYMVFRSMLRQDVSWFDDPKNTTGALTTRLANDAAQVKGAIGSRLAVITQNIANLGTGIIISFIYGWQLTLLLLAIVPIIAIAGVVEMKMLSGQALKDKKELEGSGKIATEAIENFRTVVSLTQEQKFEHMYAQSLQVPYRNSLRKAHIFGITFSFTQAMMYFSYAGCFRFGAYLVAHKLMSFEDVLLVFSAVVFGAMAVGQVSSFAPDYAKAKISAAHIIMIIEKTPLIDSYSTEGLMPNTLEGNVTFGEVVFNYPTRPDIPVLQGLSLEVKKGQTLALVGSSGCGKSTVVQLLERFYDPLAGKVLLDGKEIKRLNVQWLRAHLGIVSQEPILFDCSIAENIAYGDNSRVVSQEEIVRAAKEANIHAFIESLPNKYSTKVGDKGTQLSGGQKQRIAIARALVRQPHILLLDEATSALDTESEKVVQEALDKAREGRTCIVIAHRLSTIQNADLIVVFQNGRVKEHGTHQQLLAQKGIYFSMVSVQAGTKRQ

| Compound | target or system | test | system | setting | measurement | value |
| --- | --- | --- | --- | --- | --- | --- |
| CCn1cc(C2CC2)c2c(CN3CCC(F)(F)CC3(C)C)n(C)nc2c1=O | – | nephelometry | aqueous buffer | 30 min, pH 6.5 | kinetic solubility | 40 to 80 µM (≈ 15.1 to 30.3 µg/mL) |
| Cc1noc(C)c1Cn1cc(N2C(=O)CN(Cc3cccc(O)c3)C2=O)cn1 | – | – | male Sprague-Dawley rat, plasma | oral, 30 mg/kg, 15 min | concentration | 35.8 ng/mL |
| Cc1nnc(-c2ccccc2)nc1O | K562 | cell growth or viability | – | – | IC50 | > 200 µM |
| CCn1ccc2c([C@](C)(O)c3cnc(C(F)(F)F)c(Cl)c3)n(C)nc2c1=O | – | nephelometry | aqueous buffer | 30 min, pH 6.5 | kinetic solubility | 80 to 160 µM (≈ 32.1 to 64.1 µg/mL) |
| O=C(c1ccc(F)cc1)C1CCN(CCn2c(=O)[nH]c3ccccc3c2=O)CC1 | – | metabolic stability | monkey, liver microsomes | 45 min | compound remaining | 36.6% |
| CC1(C)CCC2(CC1)N[C@@H](C(=O)N[C@@H]1CC[C@@H](C(N)=O)OC1)[C@H](c1ccnc(Cl)c1F)[C@]21C(=O)Nc2cc(Cl)ccc21 | ATP-dependent translocase ABCB1 (ABCB1, Homo sapiens, UniProt P08183) | – | Caco-2 | 30 µM, 2 h | efflux ratio | 2.72 |
| Nc1ccn([C@@H]2O[C@H](CO)[C@@H](O)C2(F)F)c(=O)n1 | HEK293 | cell growth or viability, MTT | – | 5 µg/mL, 24 h | viability | 31.8% |
| Cc1nn(C2CC2)c(=O)c2nn(C)c(Cc3ccc(C(F)(F)F)c(C#N)c3)c12 | – | nephelometry | aqueous buffer | 30 min, pH 6.5 | kinetic solubility | 8 to 16 µM (≈ 3.1 to 6.2 µg/mL) |
| COc1ccc2c(=O)n(C)c(-c3ccccc3)nc2c1 | – | – | male Sprague-Dawley rat, plasma | oral, 30 mg/kg, 2 h | concentration | 24 ng/mL |
| COc1cccc(-c2n[nH]c(SCc3ccccn3)n2)c1OC | – | – | male Sprague-Dawley rat, plasma | oral, 100 mg/kg, 30 min, single dose | concentration | 70700 ng/mL |
| Cc1cc(C)cc(NC(=O)Nc2ccc(N3CCCCC3)cc2)c1 | K562 | cell growth or viability | – | – | IC50 | 16.1 µM |
| Cn1nc2c(=O)n(C3CC3)cnc2c1[C@](O)(c1cnc(C(F)(F)F)c(Cl)c1)C1CC1 | – | nephelometry | aqueous buffer | 30 min, pH 6.5 | kinetic solubility | 80 to 160 µM (≈ 35.2 to 70.4 µg/mL) |
| Cc1ccc(N(C)c2ccc(NC(=O)CN(C)c3cc(F)ccc3N3CCCC3=O)cc2)cc1 | HepG2 | cell growth or viability, ATP luminescence | – | 48 h | CC50 | > 40 µM |
| Cn1nc2c(=O)n(C3CC3)cc(Cl)c2c1Cc1ccc(C(F)(F)F)nc1 | – | nephelometry | aqueous buffer | 30 min, pH 6.5 | kinetic solubility | 70 to 140 µM (≈ 26.8 to 53.6 µg/mL) |
| COc1cccc(OC)c1-c1cc(C(=O)NC2(C(=O)O)C3CC4CC(C3)CC2C4)nn1-c1ccc(C(=O)N(C)CCCN(C)CCCN(C)C(=O)CN2CCN(CC(=O)[O-])CCN(CC(=O)[O-])CCN(CC(=O)[O-])CC2)cc1C(C)C.[177Lu+3] (stereo not shown) | HT-29 tumour model | – | host not given, stomach | 72 h, tumour-bearing | tracer uptake | 0.037 %ID/g |
| CC[C@@](O)(c1cnc(C(F)(F)F)c(Cl)c1)c1c2ccn(C3CC3)c(=O)c2nn1C | – | nephelometry | aqueous buffer | 30 min, pH 6.5 | kinetic solubility | 40 to 80 µM (≈ 17.1 to 34.1 µg/mL) |
| O=C(Nc1c2c(cc3c1CCC3)CCC2)NS(=O)(=O)/C=C/c1nccs1 | Cytochrome P450 2C9 (CYP2C9, Homo sapiens, UniProt P11712) | enzyme activity, inhibitor | human, liver microsomes | 10 µM, pH 7.4 | inhibition | 52.8% |
| Cc1ccc(N(CC(C)C)c2ccc(NC(=O)CN(C)c3ccccc3N3CCCC3=O)cc2)cc1 | HepG2 | cell growth or viability, ATP luminescence | – | 48 h | CC50 | > 40 µM |
| NC(=O)C1CCN(C(=O)Cc2ccc(N(CCCO)Cc3cnc4nc(N)nc(N)c4n3)cc2)CC1 | Cytochrome P450 2C19 (CYP2C19, Homo sapiens, UniProt P33261) | enzyme activity, inhibitor, luciferase | – | 10 µM | inhibition | -15.4% |
